Results collected from several papers.
Lines come from different studies, so protocols differ.
Target: Serine/threonine-protein kinase 4 (STK4, Homo sapiens, UniProt Q13043)
Residues used in one study (Q13043 1-487): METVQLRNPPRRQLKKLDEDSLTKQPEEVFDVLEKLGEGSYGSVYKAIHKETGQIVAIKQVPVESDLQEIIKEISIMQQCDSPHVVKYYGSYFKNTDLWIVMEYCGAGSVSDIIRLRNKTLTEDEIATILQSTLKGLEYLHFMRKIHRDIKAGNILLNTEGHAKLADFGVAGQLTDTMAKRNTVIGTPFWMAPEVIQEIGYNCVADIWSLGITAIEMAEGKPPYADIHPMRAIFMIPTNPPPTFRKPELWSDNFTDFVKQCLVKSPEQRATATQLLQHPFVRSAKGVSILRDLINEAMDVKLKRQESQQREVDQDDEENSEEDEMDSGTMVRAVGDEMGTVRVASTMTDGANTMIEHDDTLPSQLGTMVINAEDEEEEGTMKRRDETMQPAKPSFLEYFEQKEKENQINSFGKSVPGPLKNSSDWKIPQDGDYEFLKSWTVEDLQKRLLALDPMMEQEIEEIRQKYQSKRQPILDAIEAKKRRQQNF

| SMILES | test | test system | conditions | how to read | quantity | result |
| --- | --- | --- | --- | --- | --- | --- |
| [2H]c1cc(C)c(NC(=O)c2cnc(Nc3cc(N4CCCCC4)nc(C)n3)s2)c(Cl)c1 |  |  | 0.01 µM |  | inhibition | < 30% |
| C1=C/COCc2cc(ccc2OCCN2CCCC2)Nc2nccc(n2)-c2cccc(c2)COC/1 |  |  | concentration not given, gene name MST1 |  | percent of control | 100% |
| Cc1cc(Nc2cc(N3CCN(C)CC3)nc(Sc3ccc(NC(=O)C4CC4)cc3)n2)[nH]n1 | kinase activity, KinaseProfiler |  | 0.03 µM, species human | relative to: control | remaining activity | 94% |
| O=C(NC1CCC1)c1ccc2nc(-c3cccc(NS(=O)(=O)NCCN4CCCCC4)c3)cn2c1 | enzyme activity |  | 10 µM |  | remaining activity | 95% |
| C=CC(=O)N1CCC(COCC(=O)N2CCN(c3nc(-c4cnc(N)nc4C(F)F)nc(N4CCOC[C@@H]4C)n3)CC2)CC1 | KINOMEscan |  | 1 µM | relative to: DMSO control | remaining binding | 100% |
| COc1cc(F)ccc1-c1ncnc(Nc2cccc(C[S@](C)(=N)=O)c2)n1 | kinase activity |  | 10 µM, added: 10 µM ATP |  | remaining activity | 94% |
| C[C@@H](c1ccc(-n2cnc3c(N)ncnc32)cc1)N1CCc2nn(C)c(Cc3ccccc3)c2C1=O | KINOMEscan |  | 0.1 µM | relative to: DMSO control | remaining binding | 97% |
| CC[C@@H]1[C@H](F)C(=O)N[C@@H]1COc1nccc2cc(C(N)=O)c(OC)cc12 | ATP-site probe binding, ActivX profiling, measured: MST1 | THP-1 cell lysate | 0.2 mM, Lys1 site |  | inhibition | -2.3% |
| CCN(CC)c1ccc(C2=NNC(=O)CC2C)cc1[N+](=O)[O-] (stereo not drawn) | enzyme activity, inhibitor |  | 10 µM | relative to: vehicle | remaining activity | 101% |
| CNc1ncc2c(/C=C/C(=O)N3CCC(OC)CC3)nn(Cc3cccc(C(F)(F)F)c3)c2n1 | kinase activity, inhibitor |  | 1 µM | relative to: untreated control | remaining activity | 103% |
| CCCOc1ccc(OC)c(F)c1C(=O)c1ccc(C(=O)N[C@@H]2CNC[C@H]2NC(=O)c2ccc3[nH]ncc3c2)cc1 | enzyme activity |  | 10 µM |  | remaining activity | 88% |
| C=CC(=O)N1CCC(C(=O)NCC(=O)N2CCN(c3nc(-c4cnc(N)nc4C(F)F)nc(N4CCOCC4)n3)CC2)CC1 | KINOMEscan |  | 1 µM |  | remaining binding | 92% |

Repeated from above:
| SMILES | test | test system | conditions | how to read | quantity | result |
| --- | --- | --- | --- | --- | --- | --- |
| C[C@@H](c1ccc(-n2cnc3c(N)ncnc32)cc1)N1CCc2nn(C)c(Cc3ccccc3)c2C1=O | KINOMEscan |  | 0.1 µM | relative to: DMSO control | remaining binding | 97% |
